Measurements of several laboratories.
Each line is one published result; not all experiments were run side by side. Values joined by “and” are separate records of one study, mostly repeats; a detail may differ. ± marks the error that the study gave.
OPRM1: Mu-type opioid receptor (OPRM1, Homo sapiens, UniProt P35372)
Chain of UniProt P35372 (whole entry, looked up): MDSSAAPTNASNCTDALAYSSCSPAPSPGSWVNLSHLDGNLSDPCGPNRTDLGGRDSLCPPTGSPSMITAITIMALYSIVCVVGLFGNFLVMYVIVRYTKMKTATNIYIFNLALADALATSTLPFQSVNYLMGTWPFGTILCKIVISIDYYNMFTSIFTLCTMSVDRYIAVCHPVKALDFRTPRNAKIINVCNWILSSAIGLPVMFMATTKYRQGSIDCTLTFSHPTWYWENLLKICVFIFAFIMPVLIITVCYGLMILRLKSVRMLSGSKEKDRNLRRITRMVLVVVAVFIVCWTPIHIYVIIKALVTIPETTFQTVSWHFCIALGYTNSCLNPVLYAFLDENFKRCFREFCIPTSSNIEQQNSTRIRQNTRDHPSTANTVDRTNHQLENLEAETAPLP

SMILES	target	test	system	conditions	measurement	value
CC(C)[C@H]1CC[C@H](N2CC[C@@](C)(c3cccc(O)c3)[C@@H](C)C2)CC1	OPRM1	ligand displacement, radioligand			Ki	6 nM and 6.01 nM
C[C@@H](O)[C@H](NC(=O)[C@H]1NC(=O)[C@H]([C@@H](C)O)NC(=O)[C@H](CCCN)NC(=O)[C@@H](Cc2c[nH]c3ccccc23)NC(=O)[C@H](Cc2ccc(O)cc2)NC(=O)[C@@H](NC(=O)[C@H](N)Cc2ccccc2)CSSC1(C)C)C(N)=O	OPRM1				Ki	5.46 ± 0.7 nM
Cc1cc(O)cc(C)c1C[C@H](N)C(=O)N1Cc2ccccc2C[C@H]1C(=O)NCC(=O)NCc1ccccc1	OPRM1	GTPγS binding, agonist, radiometric		cell membranes	EC50	19 nM
CN(C)[C@H](CNC(=O)/C=C/c1cccc2ccccc12)Cc1ccc(O)cc1	Mu-type opioid receptor, with Gz (OPRM1, Homo sapiens, UniProt P35372)	receptor activation, agonist			EC50	3.8 nM
CC(C)C[C@H](NC(=O)[C@H](Cc1ccccc1)NC(=O)CN(Cc1ccccc1[N+](=O)[O-])C(=O)CNC(=O)[C@@H](N)Cc1ccc(O)cc1)C(=O)O	OPRM1	reporter gene (SEAP), agonist	HEK-293T cells	caged form, no photolysis	EC50	28900 nM
CC[C@H](C)[C@H](NC(=O)[C@@H](N)Cc1ccc(O)cc1)C(=O)N[C@@H](Cc1ccccc1)C(=O)N[C@@H](CC(N)=O)C(=O)N[C@@H](CC(C)C)C(=O)O	OPRM1	binding, radioligand displacement	PC-3	together with: [3H]DAMGO	IC50	0.043 ± 9.7e-14 nM
Cc1cc(O)cc(C)c1C[C@H](N)C(=O)N[C@@H]1CSSC[C@@H](NC(=O)[C@@H](N)Cc2c(C)cc(O)cc2C)C(=O)NCC(=O)N[C@@H](Cc2ccccc2)C(=O)NNC(=O)[C@H](Cc2ccccc2)NC(=O)CNC1=O	OPRM1	GTPγS binding, agonist, radiometric		cell membranes	EC50	7.6 nM
CC(C)C[C@H](NC(=O)[C@H](Cc1ccccc1)NC(=O)CNC(=O)CN(Cc1ccccc1[N+](=O)[O-])C(=O)[C@@H](N)Cc1ccc(O)cc1)C(=O)O	OPRM1	reporter gene (SEAP), agonist	HEK-293T cells	caged form, no photolysis	EC50	5670 nM

Some of these lines once more:
SMILES	target	test	system	conditions	measurement	value
Cc1cc(O)cc(C)c1C[C@H](N)C(=O)N[C@@H]1CSSC[C@@H](NC(=O)[C@@H](N)Cc2c(C)cc(O)cc2C)C(=O)NCC(=O)N[C@@H](Cc2ccccc2)C(=O)NNC(=O)[C@H](Cc2ccccc2)NC(=O)CNC1=O	OPRM1	GTPγS binding, agonist, radiometric		cell membranes	EC50	7.6 nM
